Measured values of several laboratories.
Compare with care: the assays were run in different laboratories. Numbers after ± are the reported error.
gag-pol integrase: Gag-Pol polyprotein, integrase (gag-pol, Human immunodeficiency virus type 1 group M subtype B, UniProt P04585)
F fusion protein: Fusion glycoprotein F0, fusion protein (F, Parainfluenza virus 5, UniProt P04849)
Chain of UniProt P22303 (whole entry, looked up): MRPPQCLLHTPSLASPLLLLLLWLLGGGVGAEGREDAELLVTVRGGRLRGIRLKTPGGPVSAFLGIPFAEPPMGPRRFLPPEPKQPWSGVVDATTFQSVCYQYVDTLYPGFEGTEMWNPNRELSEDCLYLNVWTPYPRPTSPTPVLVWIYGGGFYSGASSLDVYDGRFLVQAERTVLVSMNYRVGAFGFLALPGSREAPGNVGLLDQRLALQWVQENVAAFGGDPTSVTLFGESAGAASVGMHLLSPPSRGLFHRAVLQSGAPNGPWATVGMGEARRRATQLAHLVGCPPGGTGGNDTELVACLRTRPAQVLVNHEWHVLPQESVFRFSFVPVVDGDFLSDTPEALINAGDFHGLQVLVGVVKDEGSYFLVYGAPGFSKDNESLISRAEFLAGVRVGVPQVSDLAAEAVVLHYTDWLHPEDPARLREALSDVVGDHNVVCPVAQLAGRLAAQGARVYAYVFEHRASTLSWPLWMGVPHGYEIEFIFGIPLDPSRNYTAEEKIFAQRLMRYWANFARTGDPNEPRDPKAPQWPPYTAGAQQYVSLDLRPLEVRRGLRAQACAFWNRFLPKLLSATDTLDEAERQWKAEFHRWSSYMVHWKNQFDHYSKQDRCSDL
Chain of UniProt P32300 (whole entry, looked up): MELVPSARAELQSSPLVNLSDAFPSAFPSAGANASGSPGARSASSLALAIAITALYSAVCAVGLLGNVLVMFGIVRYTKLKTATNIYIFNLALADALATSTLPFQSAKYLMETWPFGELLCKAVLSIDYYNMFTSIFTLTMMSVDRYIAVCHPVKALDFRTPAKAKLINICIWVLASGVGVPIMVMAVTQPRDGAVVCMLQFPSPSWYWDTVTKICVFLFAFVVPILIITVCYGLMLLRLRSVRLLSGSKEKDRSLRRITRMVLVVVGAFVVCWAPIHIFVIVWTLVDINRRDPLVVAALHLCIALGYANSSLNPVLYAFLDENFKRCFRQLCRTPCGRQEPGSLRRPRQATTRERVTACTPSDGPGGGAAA
Chain of UniProt P41143 (whole entry, looked up): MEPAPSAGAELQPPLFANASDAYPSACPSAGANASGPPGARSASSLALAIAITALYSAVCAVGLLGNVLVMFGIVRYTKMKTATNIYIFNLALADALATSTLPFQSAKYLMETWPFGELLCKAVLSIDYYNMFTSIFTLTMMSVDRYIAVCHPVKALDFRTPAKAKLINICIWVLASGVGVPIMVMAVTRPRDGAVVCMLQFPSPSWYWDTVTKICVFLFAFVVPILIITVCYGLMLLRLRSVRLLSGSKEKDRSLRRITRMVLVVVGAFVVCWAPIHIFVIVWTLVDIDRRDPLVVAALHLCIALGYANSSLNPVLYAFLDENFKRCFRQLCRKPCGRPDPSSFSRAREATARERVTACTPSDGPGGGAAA

CC[C@H](C)[C@@H]1NC(=O)[C@H](C)NC(=O)[C@@H](NC(C)=O)CCCC=CCCC[C@@H](C(=O)N[C@H](C(=O)N[C@@H](CC(C)C)C(=O)N[C@@H](CCC(N)=O)C(=O)N[C@@H](CCC(N)=O)C(=O)N[C@@H](CC(C)C)C(=O)N[C@@H](CC(C)C)C(=O)N[C@@H](Cc2ccccc2)C(=O)N[C@H](C(=O)N[C@@H](Cc2c[nH]cn2)C(=O)N[C@@H](Cc2ccccc2)C(=O)N[C@@H](CCCNC(=N)N)C(=O)N[C@H](C(=O)NCC(N)=O)[C@@H](C)CC)[C@@H](C)CC)[C@@H](C)CC)NC(=O)[C@H]([C@@H](C)CC)NC1=O — IC50 (gag-pol integrase; 3′-end processing, inhibitor; HIV-1): 5800 ± 800 nM
CC[C@H](C)[C@@H]1NC(=O)[C@@H]2CCCN2C(=O)[C@H](C)NC(=O)[C@H](CC(C)C)NC(=O)[C@@H]2CCCN2C(=O)[C@H](C)NC(=O)[C@@H]2CSSC[C@H](NC(=O)[C@H](C)NC(=O)[C@H](C)NC(=O)[C@H](Cc3ccc(O)cc3)NC(=O)[C@@H]3CCCN3C(=O)CNC(=O)[C@H](Cc3c[nH]c4ccccc34)NC1=O)C(=O)N[C@@H](CC(C)C)C(=O)N[C@@H](CO)C(=O)N[C@@H](C)C(=O)N[C@H]1CSSC[C@H](NC(=O)[C@H](C(C)C)NC(=O)[C@@H]3CCCN3C(=O)CNC(=O)CNC(=O)CNC(=O)[C@H](C)NC(=O)[C@H](C)NC(=O)[C@H](CC(C)C)NC1=O)C(=O)N[C@@H](CC(C)C)C(=O)N[C@@H](C)C(=O)N[C@@H](C(C)C)C(=O)N2 — IC50 (Acetylcholinesterase (ACHE, Homo sapiens, UniProt P22303); enzyme activity, inhibitor): > 45800 nM
C[C@@H]1NC(=O)[C@@H]2CSC(=N2)c2cc3cc(n2)C2=N[C@@H](CS2)C(=O)NCC[C@@H](C(N)=O)NC(=O)[C@H](C)NC(=O)[C@H](CCCCN)NC(=O)[C@H](Cc2ccccc2)NC(=O)[C@H](CCCCN)NC(=O)[C@H](C)NC(=O)[C@H](CS3)NC(=O)[C@H](C)NC(=O)[C@H](CCCCN)NC(=O)[C@H](CCCNC(=N)N)NC(=O)[C@H](CCCCN)NC1=O — IC50 (Genome polyprotein, NS2B-NS3 protease (ZIKV, UniProt A0A024B7W1); protease activity, inhibitor, FRET; Zika virus): 260 nM
CC[C@H](C)[C@H](NC(=O)[C@H](C)NC(=O)[C@H](CO)NC(=O)[C@H](CC(C)C)NC(=O)[C@H](Cc1ccc(O)cc1)NC(=O)[C@@H](NC(=O)[C@H](CC(=O)O)NC(=O)[C@H](CO)NC(=O)[C@H](CCC(N)=O)NC(=O)[C@H](C)NC(=O)[C@H](CC(C)C)NC(=O)[C@H](Cc1c[nH]cn1)NC(=O)[C@H](CCC(N)=O)NC(=O)[C@H](CC(C)C)NC(=O)[C@H](C)NC(=O)[C@H](CC(=O)O)NC(=O)[C@H](CO)NC(=O)[C@H](CC(C)C)NC(=O)[C@H](CO)NC(=O)[C@H](CCCCN)NC(=O)[C@H](CC(N)=O)NC(=O)[C@@H](NC(=O)[C@H](C)NC(=O)[C@H](C)NC(=O)[C@H](CC(C)C)NC(=O)[C@H](CC(N)=O)NC(=O)[C@H](CCC(N)=O)NC(=O)[C@H](CO)NC(=O)[C@@H](NC(=O)[C@H](CC(=O)O)NC(=O)[C@H](Cc1c[nH]c2ccccc12)NC(=O)[C@@H]1CCCN1C(=O)[C@H](CC(=O)O)NC(=O)[C@@H](NC(=O)[C@H](CO)NC(=O)[C@H](CC(C)C)NC(=O)[C@@H](NC(=O)[C@H](CCC(N)=O)NC(=O)[C@H](CO)NC(=O)[C@H](CO)NC(=O)[C@H](CCC(=O)O)NC(=O)[C@H](CC(C)C)NC(=O)[C@@H](N)CCCCN)[C@@H](C)CC)[C@@H](C)CC)[C@@H](C)CC)C(C)C)[C@@H](C)O)C(=O)O — IC50 (F fusion protein; cell-cell fusion, inhibitor, luciferase reporter; Vero plus BSR-T7 cells; 6 h, 37 °C, with: SV5 F and HN): 106 ± 8 nM
C=CCCC[C@H](NC(=O)[C@H](C)NC(=O)[C@H](CCC(=O)O)NC(C)=O)C(=O)N[C@H](C(=O)N[C@@H](CCCNC(=N)N)C(=O)N[C@H](C(=O)N[C@@H](CCCC=C)C(=O)N[C@@H](CCC(N)=O)C(=O)N[C@@H](CCC(N)=O)C(=O)N[C@@H](CC(C)C)C(=O)N[C@@H](CC(C)C)C(=O)N[C@@H](Cc1ccccc1)C(=O)N[C@H](C(=O)N[C@@H](Cc1c[nH]cn1)C(=O)N[C@@H](Cc1ccccc1)C(=O)N[C@@H](CCCNC(=N)N)C(=O)N[C@H](C(=O)NCC(N)=O)[C@@H](C)CC)[C@@H](C)CC)[C@@H](C)CC)[C@@H](C)CC — IC50 (gag-pol integrase; 3′-end processing, inhibitor; HIV-1): 9600 ± 600 nM
CC(=O)NCCC[C@@H](NC(=O)[C@@H](N)Cc1ccc(O)cc1)C(=O)N[C@@H](Cc1ccccc1)C(=O)NCC(=O)N[C@@H](Cc1ccc(O)cc1)C(=O)N1CCC[C@H]1C(=O)N[C@@H](CO)C(N)=O — IC50 (Delta-type opioid receptor (Oprd1, Mus musculus, UniProt P32300); radioligand binding; CHO cells; with: 0.15 nM [3H]DPDPE): 272 ± 23 nM
CCCCCCCCCCCCCCCC(=O)N[C@@H](CCC(=O)NCCOCCOCCC(=O)NCCOCCOCCC(=O)NCCCC[C@H](NC(=O)[C@H](CC(=O)O)NC(=O)[C@H](CC(C)C)NC(=O)[C@H](Cc1ccc(O)cc1)NC(=O)[C@H](CCCCN)NC(=O)[C@H](CO)NC(=O)[C@H](Cc1ccc(O)cc1)NC(=O)[C@H](CC(=O)O)NC(=O)[C@H](CO)NC(=O)[C@@H](NC(=O)[C@H](Cc1ccccc1)NC(=O)[C@@H](NC(=O)CNC(=O)[C@H](CCC(N)=O)NC(=O)[C@@H](CO)NC(=O)[C@@H](N)Cc1c[nH]cn1)[C@@H](C)O)[C@@H](C)O)C(=O)N[C@@H](CCCNC(=N)N)C(=O)N[C@@H](CCCNC(=N)N)C(=O)N[C@@H](C)C(=O)N[C@@H](CCC(N)=O)C(=O)N[C@@H](CC(=O)O)C(=O)N[C@@H](Cc1ccccc1)C(=O)N[C@H](C(=O)N[C@@H](CCC(N)=O)C(=O)N[C@@H](Cc1c[nH]c2ccccc12)C(=O)N[C@@H](CC(C)C)C(=O)N[C@@H](CC(C)C)C(=O)N[C@@H](CC(N)=O)C(=O)N[C@H](C(=O)NCC(=O)NCC(=O)N1CCC[C@H]1C(=O)N[C@@H](CO)C(=O)N[C@@H](CO)C(=O)NCC(=O)N[C@@H](C)C(=O)N1CCC[C@H]1C(=O)N1CCC[C@H]1C(=O)N1CCC[C@H]1C(=O)N[C@@H](CO)C(N)=O)[C@@H](C)O)C(C)C)C(=O)O — urea (Sprague-Dawley rat, female; subcutaneous, 100 µg/kg once daily, 14 days): 3.96 ± 0.68 mmol/L
C=CCCC[C@](C)(NC(=O)CNC(=O)[C@H](C)NC(=O)[C@H](CC(C)C)NC(=O)[C@](C)(CCCC=C)NC(=O)[C@H](CC(C)C)NC(=O)[C@H](CC(C)C)NC(=O)[C@H](Cc1ccccc1)NC(=O)[C@H](Cc1ccc(O)cc1)NC(=O)[C@H](C)NC(=O)[C@@H](N)[C@@H](C)O)C(=O)N[C@@H](Cc1c[nH]c2ccccc12)C(N)=O — IC50 (gag-pol integrase; integrase 3'-processing, inhibitor): > 100000 nM
CC[C@H](C)[C@H](NC(=O)[C@H](CCCCN)NC(=O)[C@H](CCCCN)NC(=O)[C@H](CC(C)C)NC(=O)[C@H](Cc1c[nH]c2ccccc12)NC(=O)CN)C(=O)NCC(=O)N[C@@H](CCCCN)C(=O)N[C@@H](CCCCN)C(=O)N[C@H](C(=O)N[C@@H](CCC(=O)O)C(=O)N[C@@H](CCCNC(=N)N)C(=O)N[C@H](C(=O)NCC(=O)N[C@@H](CCC(N)=O)C(=O)N[C@@H](Cc1c[nH]cn1)C(=O)N[C@H](C(=O)N[C@@H](CCCNC(=N)N)C(=O)N[C@@H](CC(=O)O)C(=O)N[C@@H](C)C(=O)N[C@H](C(=O)N[C@H](C(=O)N[C@@H](CCC(N)=O)C(=O)N[C@H](C(=O)N[C@H](C(=O)NCC(=O)N[C@H](C(=O)N[C@@H](C)C(=O)N[C@@H](CCC(N)=O)C(=O)N[C@@H](CCC(N)=O)C(=O)N[C@@H](C)C(=O)N[C@@H](C)C(=O)N[C@@H](CC(N)=O)C(=O)N[C@H](C(=O)N[C@@H](C)C(=O)N[C@@H](C)C(=O)N[C@H](C(=O)N[C@@H](CC(C)C)C(=O)N[C@@H](CCCCN)C(N)=O)[C@@H](C)O)C(C)C)C(C)C)[C@@H](C)CC)[C@@H](C)O)[C@@H](C)CC)[C@@H](C)O)[C@@H](C)O)C(C)C)[C@@H](C)CC — no-observed-effect concentration (HepG2; cytotoxicity, measured: intracellular ATP): 420 mg/L
CC[C@H](C)[C@H](NC(=O)CNC(=O)[C@H](Cc1c[nH]c2ccccc12)NC(=O)[C@@H](NC(=O)[C@@H](NC(=O)[C@H](CC(C)C)NC(=O)[C@H](CCC(N)=O)NC(=O)[C@H](CC(C)C)NC(=O)[C@H](C)NC(=O)[C@H](Cc1c[nH]cn1)NC(=O)[C@H](CCC(N)=O)NC(=O)[C@H](CCC(N)=O)NC(=O)[C@H](C)NC(=O)[C@H](CCC(=O)O)NC(=O)[C@@H](NC(=O)[C@H](C)NC(=O)[C@H](CCCNC(=N)N)NC(=O)[C@H](CC(C)C)NC(=O)[C@@H](NC(=O)[C@H](CC(N)=O)NC(=O)[C@H](CC(N)=O)NC(=O)[C@@H](NC(=O)[C@H](CCC(N)=O)NC(=O)[C@H](CCC(=O)O)NC(=O)[C@@H](NC(=O)[C@@H](NC(=O)[C@H](CCCCN)NC(=O)[C@H](CO)NC(=O)[C@@H](NC(=O)[C@H](CC(C)C)NC(=O)[C@H](CCC(=O)O)NC(=O)[C@H](CCCNC(=N)N)NC(=O)[C@@H](NC(=O)[C@@H](N)CCC(N)=O)[C@@H](C)CC)[C@@H](C)CC)[C@@H](C)CC)C(C)C)[C@@H](C)CC)[C@@H](C)CC)[C@@H](C)CC)[C@@H](C)O)C(C)C)C(=O)N[C@@H](CCCCN)C(=O)N[C@@H](CCC(N)=O)C(=O)N[C@@H](CC(C)C)C(=O)N[C@@H](CCC(N)=O)C(=O)N[C@@H](C)C(=O)N[C@@H](CCCNC(=N)N)C(=O)N[C@H](C(=O)N[C@@H](CC(C)C)C(=O)N[C@@H](C)C(=O)N[C@H](C(=O)N[C@@H](CCC(=O)O)C(=O)N[C@@H](CCCNC(=N)N)C(=O)N[C@@H](Cc1ccc(O)cc1)C(=O)N[C@@H](CC(C)C)C(=O)N[C@@H](CCCCN)C(=O)N[C@@H](CC(=O)O)C(=O)N[C@@H](CCC(N)=O)C(N)=O)C(C)C)[C@@H](C)CC — IC50 (HIV-1 gp41 5-helix; D5 antibody binding, FRET competition): > 300 nM
CC[C@H](C)[C@H](N)C(=O)N[C@@H](CC(N)=O)C(=O)N[C@@H](CC(N)=O)C(=O)N[C@H](C(=O)N1C[C@@H](n2cc([C]34[CH]5[CH]6[CH]7[CH]3[Fe]6754389%10[CH]4[CH]3[CH]8[CH]9[CH]4%10)nn2)C[C@H]1C(=O)N[C@@H](Cc1ccc(O)cc1)C(N)=O)[C@@H](C)CC (stereo partly shown) — IC50 (Envelope glycoprotein gp160, gp120 (env, Human immunodeficiency virus type 1 group M subtype B, UniProt P35961, F206A); binding to soluble CD4, inhibitor, competition SPR; gp120 F210A mutant): 4100 ± 300 nM
CC[C@H](C)[C@H](NC(=O)[C@H](C)NC(=O)[C@H](CO)NC(=O)[C@H](CC(C)C)NC(=O)[C@H](Cc1ccc(O)cc1)NC(=O)[C@@H](NC(=O)[C@H](CC(=O)O)NC(=O)[C@H](CO)NC(=O)[C@H](CCC(N)=O)NC(=O)[C@H](C)NC(=O)[C@H](CC(C)C)NC(=O)[C@H](Cc1c[nH]cn1)NC(=O)[C@H](CCC(N)=O)NC(=O)[C@H](CC(C)C)NC(=O)[C@H](C)NC(=O)[C@H](CC(=O)O)NC(=O)[C@H](CO)NC(=O)[C@H](CC(C)C)NC(=O)[C@H](CO)NC(=O)[C@H](CCCCN)NC(=O)[C@H](CC(N)=O)NC(=O)[C@@H](NC(=O)[C@H](C)NC(=O)[C@H](C)NC(=O)[C@H](CC(C)C)NC(=O)[C@H](CC(N)=O)NC(=O)[C@H](CCC(N)=O)NC(=O)[C@H](CO)NC(=O)[C@@H](NC(=O)[C@H](CC(=O)O)NC(=O)[C@@H](NC(=O)[C@@H]1CCCN1C(=O)[C@H](CC(=O)O)NC(=O)[C@@H](NC(=O)[C@H](CO)NC(=O)[C@H](CC(C)C)NC(=O)[C@@H](NC(=O)[C@H](CCC(N)=O)NC(=O)[C@H](CO)NC(=O)[C@H](CO)NC(=O)[C@H](CCC(=O)O)NC(=O)[C@H](CC(C)C)NC(=O)[C@@H](N)CCCCN)[C@@H](C)CC)[C@@H](C)CC)[C@@H](C)CC)[C@@H](C)CC)C(C)C)[C@@H](C)O)C(=O)O — IC50 (F fusion protein; cell-cell fusion, inhibitor, luciferase reporter; Vero plus BSR-T7 cells; 6 h, 37 °C, with: SV5 F and HN): 50 ± 7 nM
Cc1cc(O)cc(C)c1C[C@H](N)C(=O)NCC(=O)NCC(=O)N[C@@H](Cc1ccccc1)C(=O)N[C@H](C(=O)NCC(=O)N[C@@H](C)C(=O)N[C@@H](CCCNC(=N)N)C(=O)N[C@@H](CCCCN)C(=O)N[C@@H](CO)C(=O)N[C@@H](C)C(=O)N[C@@H](CCCNC(=N)N)C(=O)N[C@@H](CCCCN)C(N)=O)[C@@H](C)O — Ki (Delta-type opioid receptor (OPRD1, Homo sapiens, UniProt P41143); ligand displacement, radioligand; cell membranes): 0.102 nM
